Results of several laboratories.
Every numbered part comes from another study and shows a few of its results, in no order. Several values in a cell are separate wells, animals, samples, runs or records.
Sequence of UniProt P23458 (whole entry, looked up): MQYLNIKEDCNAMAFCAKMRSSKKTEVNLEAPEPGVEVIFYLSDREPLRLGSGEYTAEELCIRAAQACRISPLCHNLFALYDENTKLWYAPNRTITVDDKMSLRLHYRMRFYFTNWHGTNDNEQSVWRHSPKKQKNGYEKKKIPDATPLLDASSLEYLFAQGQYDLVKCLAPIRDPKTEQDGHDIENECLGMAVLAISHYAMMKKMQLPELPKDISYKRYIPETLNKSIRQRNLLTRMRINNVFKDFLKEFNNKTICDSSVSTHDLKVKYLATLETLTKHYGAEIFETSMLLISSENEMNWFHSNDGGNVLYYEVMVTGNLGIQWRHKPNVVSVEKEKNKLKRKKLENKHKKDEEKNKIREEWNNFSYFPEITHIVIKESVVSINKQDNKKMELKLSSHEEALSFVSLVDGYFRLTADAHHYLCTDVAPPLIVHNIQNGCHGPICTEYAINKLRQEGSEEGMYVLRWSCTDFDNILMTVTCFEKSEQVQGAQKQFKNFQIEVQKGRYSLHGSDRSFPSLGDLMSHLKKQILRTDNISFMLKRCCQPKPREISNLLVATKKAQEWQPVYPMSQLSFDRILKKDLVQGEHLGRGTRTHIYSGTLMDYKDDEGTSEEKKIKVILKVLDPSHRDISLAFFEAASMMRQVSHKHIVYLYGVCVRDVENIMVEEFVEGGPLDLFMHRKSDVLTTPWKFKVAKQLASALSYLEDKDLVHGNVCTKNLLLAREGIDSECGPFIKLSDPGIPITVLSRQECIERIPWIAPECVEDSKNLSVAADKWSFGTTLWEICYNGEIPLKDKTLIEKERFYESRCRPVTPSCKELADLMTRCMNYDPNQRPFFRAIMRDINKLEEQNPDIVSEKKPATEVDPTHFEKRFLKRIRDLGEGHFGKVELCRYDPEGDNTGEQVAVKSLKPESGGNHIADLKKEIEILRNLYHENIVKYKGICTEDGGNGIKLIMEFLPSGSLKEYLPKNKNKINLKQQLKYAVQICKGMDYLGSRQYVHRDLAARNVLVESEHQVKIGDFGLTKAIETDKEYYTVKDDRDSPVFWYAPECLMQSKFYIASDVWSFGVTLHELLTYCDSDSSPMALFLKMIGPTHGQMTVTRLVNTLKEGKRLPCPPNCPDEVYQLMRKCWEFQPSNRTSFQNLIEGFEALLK
Sequence of UniProt Q00535 (whole entry, looked up): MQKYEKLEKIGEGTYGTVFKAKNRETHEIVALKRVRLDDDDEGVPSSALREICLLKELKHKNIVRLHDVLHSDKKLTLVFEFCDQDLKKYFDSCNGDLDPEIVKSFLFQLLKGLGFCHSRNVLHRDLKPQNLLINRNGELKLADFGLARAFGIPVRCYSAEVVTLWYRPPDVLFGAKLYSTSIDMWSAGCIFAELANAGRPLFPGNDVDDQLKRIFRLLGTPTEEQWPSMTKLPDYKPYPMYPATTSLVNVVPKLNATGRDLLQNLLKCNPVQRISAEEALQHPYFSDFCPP
Sequence of UniProt P53667 (whole entry, looked up): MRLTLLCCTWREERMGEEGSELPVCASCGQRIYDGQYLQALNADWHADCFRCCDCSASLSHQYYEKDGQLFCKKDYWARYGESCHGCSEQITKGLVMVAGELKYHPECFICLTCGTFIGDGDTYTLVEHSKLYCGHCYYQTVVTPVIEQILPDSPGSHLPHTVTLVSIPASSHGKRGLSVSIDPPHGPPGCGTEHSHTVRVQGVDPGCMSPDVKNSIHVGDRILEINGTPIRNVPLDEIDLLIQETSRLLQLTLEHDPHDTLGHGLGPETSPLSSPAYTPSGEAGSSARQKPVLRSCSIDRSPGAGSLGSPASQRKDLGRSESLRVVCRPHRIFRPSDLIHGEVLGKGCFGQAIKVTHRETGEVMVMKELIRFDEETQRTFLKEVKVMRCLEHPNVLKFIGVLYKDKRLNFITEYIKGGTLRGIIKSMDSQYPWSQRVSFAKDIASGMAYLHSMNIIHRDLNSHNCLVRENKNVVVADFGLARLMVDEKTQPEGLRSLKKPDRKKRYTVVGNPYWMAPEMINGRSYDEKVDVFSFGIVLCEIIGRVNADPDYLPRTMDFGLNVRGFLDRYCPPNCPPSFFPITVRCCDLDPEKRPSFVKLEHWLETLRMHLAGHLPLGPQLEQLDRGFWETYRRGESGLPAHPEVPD
Sequence of UniProt P07333 (whole entry, looked up): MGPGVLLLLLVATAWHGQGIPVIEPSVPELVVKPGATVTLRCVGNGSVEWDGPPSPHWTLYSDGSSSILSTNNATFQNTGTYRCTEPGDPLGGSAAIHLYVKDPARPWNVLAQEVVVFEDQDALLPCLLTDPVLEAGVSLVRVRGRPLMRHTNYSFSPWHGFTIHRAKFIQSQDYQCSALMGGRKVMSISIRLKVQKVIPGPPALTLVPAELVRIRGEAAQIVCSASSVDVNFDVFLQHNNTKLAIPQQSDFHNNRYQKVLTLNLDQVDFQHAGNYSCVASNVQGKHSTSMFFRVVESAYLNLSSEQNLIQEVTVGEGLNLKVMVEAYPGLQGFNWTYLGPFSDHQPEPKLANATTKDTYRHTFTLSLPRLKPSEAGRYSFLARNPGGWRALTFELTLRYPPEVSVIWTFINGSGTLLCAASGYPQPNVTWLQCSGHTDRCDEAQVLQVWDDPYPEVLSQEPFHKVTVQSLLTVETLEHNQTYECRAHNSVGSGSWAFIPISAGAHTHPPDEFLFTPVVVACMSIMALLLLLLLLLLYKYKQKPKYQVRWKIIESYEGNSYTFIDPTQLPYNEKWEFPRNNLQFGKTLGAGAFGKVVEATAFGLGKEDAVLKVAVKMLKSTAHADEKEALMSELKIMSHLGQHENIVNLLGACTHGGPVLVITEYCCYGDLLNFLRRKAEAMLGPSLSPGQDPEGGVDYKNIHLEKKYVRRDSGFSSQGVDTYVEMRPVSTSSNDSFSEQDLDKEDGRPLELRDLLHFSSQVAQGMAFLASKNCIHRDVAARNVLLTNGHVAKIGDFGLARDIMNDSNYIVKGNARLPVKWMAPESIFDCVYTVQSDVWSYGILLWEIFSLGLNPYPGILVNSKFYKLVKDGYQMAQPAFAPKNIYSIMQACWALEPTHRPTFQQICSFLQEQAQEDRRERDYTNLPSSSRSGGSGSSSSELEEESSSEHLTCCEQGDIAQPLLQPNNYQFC
Sequence of UniProt Q9HBY8 (whole entry, looked up): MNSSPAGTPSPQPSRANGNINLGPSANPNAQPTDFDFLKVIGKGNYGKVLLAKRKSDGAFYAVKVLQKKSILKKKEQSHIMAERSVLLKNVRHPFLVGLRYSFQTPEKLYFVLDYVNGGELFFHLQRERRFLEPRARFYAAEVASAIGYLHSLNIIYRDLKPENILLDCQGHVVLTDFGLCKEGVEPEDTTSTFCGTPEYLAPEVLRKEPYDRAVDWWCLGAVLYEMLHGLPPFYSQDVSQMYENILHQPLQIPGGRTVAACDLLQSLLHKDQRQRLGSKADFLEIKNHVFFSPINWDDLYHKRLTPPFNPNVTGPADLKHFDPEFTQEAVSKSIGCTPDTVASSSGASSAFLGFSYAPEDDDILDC
Sequence of UniProt Q13882 (whole entry, looked up): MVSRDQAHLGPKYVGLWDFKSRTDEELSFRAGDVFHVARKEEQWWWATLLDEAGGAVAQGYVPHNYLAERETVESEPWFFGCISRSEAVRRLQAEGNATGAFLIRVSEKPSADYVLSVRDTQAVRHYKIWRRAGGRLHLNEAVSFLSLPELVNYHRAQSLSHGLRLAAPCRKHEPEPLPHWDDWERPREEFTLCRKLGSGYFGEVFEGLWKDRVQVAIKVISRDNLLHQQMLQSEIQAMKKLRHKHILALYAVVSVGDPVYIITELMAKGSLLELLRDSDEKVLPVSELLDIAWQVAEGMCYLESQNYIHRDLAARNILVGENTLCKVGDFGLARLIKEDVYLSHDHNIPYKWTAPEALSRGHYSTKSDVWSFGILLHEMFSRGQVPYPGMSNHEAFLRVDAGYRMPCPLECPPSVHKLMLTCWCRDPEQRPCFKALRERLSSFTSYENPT
Sequence of UniProt P42680 (whole entry, looked up): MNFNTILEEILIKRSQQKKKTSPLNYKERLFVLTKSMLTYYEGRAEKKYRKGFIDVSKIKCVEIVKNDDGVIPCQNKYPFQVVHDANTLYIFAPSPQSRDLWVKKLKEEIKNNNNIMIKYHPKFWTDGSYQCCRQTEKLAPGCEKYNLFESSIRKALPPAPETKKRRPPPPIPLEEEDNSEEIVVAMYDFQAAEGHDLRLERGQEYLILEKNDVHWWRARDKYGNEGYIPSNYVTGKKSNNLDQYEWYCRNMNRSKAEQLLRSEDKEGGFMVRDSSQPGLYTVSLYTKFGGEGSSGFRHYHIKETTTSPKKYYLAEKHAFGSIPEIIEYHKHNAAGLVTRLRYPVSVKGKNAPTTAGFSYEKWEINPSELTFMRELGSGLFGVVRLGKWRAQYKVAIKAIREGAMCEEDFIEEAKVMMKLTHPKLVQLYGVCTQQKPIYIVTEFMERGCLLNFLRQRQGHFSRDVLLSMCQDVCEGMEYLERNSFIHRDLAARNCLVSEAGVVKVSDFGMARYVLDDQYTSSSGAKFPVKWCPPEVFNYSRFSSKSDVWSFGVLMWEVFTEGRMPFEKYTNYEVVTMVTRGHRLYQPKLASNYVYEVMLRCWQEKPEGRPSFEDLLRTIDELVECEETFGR

Block 1
Structure (SMILES): COc1cc2c(N3CCN(C(=O)Nc4ccc(OC(C)C)cc4)CC3)ncnc2cc1OCCCN1CCCCC1
Observed: enzyme activity
Action: inhibitor
Tested at: 0.5 µM
Reference: control
Endpoint: remaining activity
target = CAMKK1 (Homo sapiens, UniProt Q8N5S9); value = 90.3%
target = SGK2 (Homo sapiens, UniProt Q9HBY8); value = 105%
target = CAMK1 (Homo sapiens, UniProt Q14012); value = 101%
target = SRPK1 (Homo sapiens, UniProt Q96SB4); value = 98.2%
target = CLK2 (Homo sapiens, UniProt P49760); value = 80.7%
target = TEC (Homo sapiens, UniProt P42680); value = 89%
target = RPS6KA3 (Homo sapiens, UniProt P51812); value = 96.7%
target = TYRO3 (Homo sapiens, UniProt Q06418); value = 101%
target = EPHA2 (Homo sapiens, UniProt P29317); value = 102%
target = JAK1 (Homo sapiens, UniProt P23458); value = 102%
target = PAK6 (Homo sapiens, UniProt Q9NQU5); value = 101%
target = CLK1 (Homo sapiens, UniProt P49759); value = 72.4%
target = PRKCQ (Homo sapiens, UniProt Q04759); value = 103%
target = PAK1 (Homo sapiens, UniProt Q13153); value = 107%
target = Cyclin-dependent kinase 2, with cyclin E (CDK2, Homo sapiens, UniProt P24941); value = 96.7%
target = FLT1 (Homo sapiens, UniProt P17948); value = 99.4%
target = SIK2 (Homo sapiens, UniProt Q9H0K1); value = 98.9%
target = IGF1R (Homo sapiens, UniProt P08069); value = 97.7%
target = EPHA6 (Homo sapiens, UniProt Q9UF33); value = 103%

Block 2
SMILES: O=C(Nc1cnc(Oc2ccc(F)cc2)nc1)N1CCc2ncccc2[C@@H]1c1ccc(F)cc1
Tested at: 1 µM
Endpoint: remaining binding
target = STK35 (Homo sapiens, UniProt Q8TDR2); observed = cell-free assay; technique = competition with immobilised ligand; value = 71%
target = PAK5 (Homo sapiens, UniProt Q9P286); observed = cell-free assay; technique = competition with immobilised ligand; value = 95%
target = EPHB6 (Homo sapiens, UniProt O15197); observed = cell-free assay; technique = competition with immobilised ligand; value = 100%
target = STK17B (Homo sapiens, UniProt O94768); observed = cell-free assay; technique = competition with immobilised ligand; value = 92%
target = CDK11B (Homo sapiens, UniProt P21127); observed = cell-free assay; technique = competition with immobilised ligand; value = 94%
target = PRPF4B (Homo sapiens, UniProt Q13523); observed = cell-free assay; technique = competition with immobilised ligand; value = 90%
target = CDK5 (Homo sapiens, UniProt Q00535); observed = cell-free assay; technique = competition with immobilised ligand; value = 100%
target = CSNK1G2 (Homo sapiens, UniProt P78368); observed = cell-free assay; technique = competition with immobilised ligand; value = 96%
target = RIPK2 (Homo sapiens, UniProt O43353); observed = cell-free assay; technique = competition with immobilised ligand; value = 93%
target = Tyrosine-protein kinase ABL1, phosphorylated (ABL1, Homo sapiens, UniProt P00519, F317I); observed = binding; value = 100%
target = MAP4K1 (Homo sapiens, UniProt Q92918); observed = cell-free assay; technique = competition with immobilised ligand; value = 100%
target = PIK3CA (Homo sapiens, UniProt P42336, E545A); observed = cell-free assay; technique = competition with immobilised ligand; value = 98%
target = CSF1R (Homo sapiens, UniProt P07333); observed = cell-free assay; technique = competition with immobilised ligand; value = 78%
target = MAPK6 (Homo sapiens, UniProt Q16659); observed = cell-free assay; technique = competition with immobilised ligand; value = 100%
target = LIM domain kinase 1 (LIMK1, Homo sapiens, UniProt P53667); observed = cell-free assay; technique = competition with immobilised ligand; value = 99%
target = EGFR (Homo sapiens, UniProt P00533, G719C); observed = cell-free assay; technique = competition with immobilised ligand; value = 76%
target = PTK6 (Homo sapiens, UniProt Q13882); observed = cell-free assay; technique = competition with immobilised ligand; value = 98%
target = PLK3 (Homo sapiens, UniProt Q9H4B4); observed = cell-free assay; technique = competition with immobilised ligand; value = 87%
target = PIM1 (Homo sapiens, UniProt P11309); observed = cell-free assay; technique = competition with immobilised ligand; value = 91%
target = Tyrosine-protein kinase JAK1, JH2 (JAK1, Homo sapiens, UniProt P23458); observed = cell-free assay; technique = competition with immobilised ligand; value = 96%

Block 3
Target: Calcium/calmodulin-dependent protein kinase type II subunit alpha (CAMK2A, Homo sapiens, UniProt Q9UQM7)
Sequence of UniProt Q9UQM7 (whole entry, looked up): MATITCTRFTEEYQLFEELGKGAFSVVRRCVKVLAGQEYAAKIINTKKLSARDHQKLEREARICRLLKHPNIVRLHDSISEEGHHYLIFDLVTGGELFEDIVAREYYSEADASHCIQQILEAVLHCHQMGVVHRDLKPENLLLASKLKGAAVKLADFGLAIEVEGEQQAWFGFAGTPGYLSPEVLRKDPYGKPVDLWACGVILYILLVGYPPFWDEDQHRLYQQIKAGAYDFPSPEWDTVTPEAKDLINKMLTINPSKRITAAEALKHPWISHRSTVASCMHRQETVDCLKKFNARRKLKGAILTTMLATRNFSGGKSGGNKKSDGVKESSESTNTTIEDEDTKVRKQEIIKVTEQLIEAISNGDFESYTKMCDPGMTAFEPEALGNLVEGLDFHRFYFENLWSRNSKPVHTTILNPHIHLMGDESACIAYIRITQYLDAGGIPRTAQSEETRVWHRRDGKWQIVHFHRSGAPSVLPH
Observed: enzyme activity
Action: inhibitor
Tested at: 10 µM
Endpoint: inhibition
Structure (SMILES) = CC(C)(CO)[C@@H](O)C(=O)NCCC(=O)NCCSSCCNC(=O)CCNC(=O)[C@H](O)C(C)(C)CO; value = -33%
Structure (SMILES) = C[C@@H]1CCCC2=CC(=O)[C@@H]3[C@@H](C3(C)C)[C@]21C; value = -2%
Structure (SMILES) = CN1C(C(=O)Nc2ccccn2)=C(O)c2sc(Cl)cc2S1(=O)=O; value = 20%
Structure (SMILES) = CCC1(c2ccc(O)cc2)NC(=O)N(C)C1=O (stereo not shown); value = -18%
Structure (SMILES) = CS(=O)(=O)Nc1cc2occ(NC=O)c(=O)c2cc1Oc1ccccc1; value = -4%
Structure (SMILES) = COc1ccc(C=O)c(O)c1; value = -21%
Structure (SMILES) = O=C(/C=C/c1ccc(O)c(O)c1)O[C@@H](C(=O)O)[C@@H](O)C(=O)O; value = 31%
Structure (SMILES) = C[C@H](O)[C@@H](O)[C@@H](O)[C@H](O)CO; value = 0%
Structure (SMILES) = COC[C@@H]1Cc2cc(OC)c3c(c2[C@H](c2ccc(OC)c(OC)c2)[C@H]1COC)OCO3; value = -23%
Structure (SMILES) = C[C@@](Cc1ccc(O)c(O)c1)(NN)C(=O)O; value = -2%
Structure (SMILES) = O=C(O)c1ccc(C(=O)O)cc1; value = -24%
Structure (SMILES) = CC1(C)[C@@H]2CC[C@@]1(C)C(=O)C2; value = 2%
Structure (SMILES) = CC(=O)OC/C=C(C)/C=C/C=C(C)/C=C/C1=C(C)CCCC1(C)C; value = -1%
Structure (SMILES) = O=C(O)c1cccc(O)c1; value = -22%
Structure (SMILES) = O=c1cc(-c2ccc(O)c(-c3c(O)cc(O)c4c(=O)cc(-c5ccc(O)cc5)oc34)c2)oc2cc(O)cc(O)c12; value = -146%
Structure (SMILES) = C=C(C)[C@@H]1CC=C(/C=N/O)CC1; value = -10%

Block 4
Cell line: mouse MPNST tumor cells
Technique: high-content nuclear imaging
Measured: cell number
Tested at: 10 µM
Time: 12 h
Notes: mean of 2 replicates
Reference: plate mean
Direction: higher = more cells
Endpoint: nuclei count
SMILES = CC(C)N(CCCNC(=O)Nc1ccc(C(C)(C)C)cc1)C[C@H]1O[C@@H](n2ccc3c(N)ncnc32)[C@H](O)[C@@H]1O; value = 2.41 z-score
SMILES = O=C(Nc1cccc(Br)c1)c1cccc(S(=O)(=O)N2CCCCCC2)c1; value = 1.54 z-score
SMILES = COc1ccc2c(c1)C(=O)N(CCc1ccc(S(=O)(=O)NC(=O)NC3CCCCC3)cc1)C(=O)C2(C)C; value = 1.57 z-score
SMILES = COc1ccc(Cl)cc1NC(=O)Nc1cc(C)nc2ccccc12; value = -0.429 z-score
SMILES = CC(C)C[C@@H](C(=O)N[C@H](C(=O)OC1CCCC1)c1ccccc1)[C@H](O)C(=O)NO; value = 0.704 z-score
SMILES = OC(c1cc(C(F)(F)F)nc2c(C(F)(F)F)cccc12)C1CCCCN1 (stereo not shown); value = -6.17 z-score
SMILES = CCC[C@H](N[C@@H](C)C(=O)N1[C@H](C(=O)O)C[C@@H]2CCCC[C@@H]21)C(=O)OCC; value = 1.51 z-score
SMILES = Cc1ccc(-c2cn3c4c(sc3n2)CCCC4)cc1; value = -0.528 z-score
SMILES = Nc1nc(SCCc2ccc(S(=O)(=O)O)cc2)nc2c1ncn2[C@@H]1O[C@H](CO)[C@@H](O)[C@@H]1O; value = 2.29 z-score
SMILES = CN1CCc2ccccc2Cc2[nH]c3ccccc3c2CC1; value = 0.53 z-score
SMILES = Oc1c(I)cc(Cl)c2cccnc12; value = 1.48 z-score
SMILES = CCCc1cc(C(N)=S)ccn1; value = -0.313 z-score
SMILES = COc1ccc(C(=O)Nc2sc3c(c2C(N)=O)CCCC3)cc1OC; value = 2.22 z-score
SMILES = Cc1nc(-c2cnn(C)c2-c2ccc(C(F)(F)F)cn2)c2c(N3CCC3)ncnn12; value = 0.353 z-score
SMILES = c1ccc([C@H]2CN3CCSC3=N2)cc1; value = 0.24 z-score and 0.89 z-score
SMILES = NC(=O)c1ccc(F)c2c1C[C@@H](N(C1CCC1)C1CCC1)CO2; value = 0.385 z-score
SMILES = C[n+]1ccccc1/C=N/O; value = 1.35 z-score
SMILES = CC(C)(C)C(=O)Oc1ccc(S(=O)(=O)Nc2ccccc2C(=O)NCC(=O)O)cc1; value = 0.505 z-score

Repeated from above (block 4):
SMILES = CCC[C@H](N[C@@H](C)C(=O)N1[C@H](C(=O)O)C[C@@H]2CCCC[C@@H]21)C(=O)OCC; value = 1.51 z-score
SMILES = Cc1ccc(-c2cn3c4c(sc3n2)CCCC4)cc1; value = -0.528 z-score
SMILES = Nc1nc(SCCc2ccc(S(=O)(=O)O)cc2)nc2c1ncn2[C@@H]1O[C@H](CO)[C@@H](O)[C@@H]1O; value = 2.29 z-score
SMILES = CN1CCc2ccccc2Cc2[nH]c3ccccc3c2CC1; value = 0.53 z-score
SMILES = Oc1c(I)cc(Cl)c2cccnc12; value = 1.48 z-score
SMILES = CCCc1cc(C(N)=S)ccn1; value = -0.313 z-score
SMILES = COc1ccc(C(=O)Nc2sc3c(c2C(N)=O)CCCC3)cc1OC; value = 2.22 z-score
SMILES = Cc1nc(-c2cnn(C)c2-c2ccc(C(F)(F)F)cn2)c2c(N3CCC3)ncnn12; value = 0.353 z-score
SMILES = c1ccc([C@H]2CN3CCSC3=N2)cc1; value = 0.24 z-score and 0.89 z-score
SMILES = NC(=O)c1ccc(F)c2c1C[C@@H](N(C1CCC1)C1CCC1)CO2; value = 0.385 z-score
SMILES = C[n+]1ccccc1/C=N/O; value = 1.35 z-score
SMILES = CC(C)(C)C(=O)Oc1ccc(S(=O)(=O)Nc2ccccc2C(=O)NCC(=O)O)cc1; value = 0.505 z-score
